Assay results of several laboratories.
Compare with care: the assays were run in different laboratories. Several values in a cell are separate wells, animals, samples, runs or records. Numbers after ± are the reported error.

SMILES	tested on	test	test system	setting	quantity	result
CC[C@H](C)[C@H](NC(=O)[C@H](CCCCN)NC(=O)CNC(=O)[C@H](CC(C)C)NC(=O)[C@H](Cc1ccccc1)NC(=O)[C@H](CCCCN)NC(=O)[C@H](CO)NC(=O)[C@H](Cc1ccccc1)NC(=O)[C@H](Cc1c[nH]c2ccccc12)NC(=O)[C@H](CCC(N)=O)NC(=O)[C@@H](NC(=O)[C@H](Cc1ccccc1)NC(=O)CCCCCNC(=O)CN1CCN(CC(=O)O)CCN(CC(=O)O)CCN(CC(=O)O)CC1)C(C)C)C(=O)N[C@@H](CCC(=O)O)C(=O)N1CCC[C@H]1C(=O)N[C@@H](CC(=O)O)C(=O)N[C@H](C(=O)N[C@@H](CO)C(=O)N[C@@H](CCC(N)=O)C(=O)N[C@H](C(=O)N[C@@H](CCC(N)=O)C(=O)N[C@@H](CC(=O)O)C(=O)N1CCC[C@H]1C(=O)N[C@@H](CC(N)=O)C(=O)N[C@@H](CC(=O)O)C(=O)N[C@@H](CCC(N)=O)C(=O)N[C@@H](Cc1ccc(O)cc1)C(=O)N[C@@H](CCC(=O)O)C(=O)N1CCC[C@H]1C(=O)N[C@@H](Cc1ccccc1)C(=O)O)C(C)C)C(C)C [copper-64 labelled]	–	–	C57BL/6 mice, male, naive, white fat	24 h	tissue uptake	0.33 ± 0.1 %ID/g
CCn1ccc(-c2cc([C@@H](C)NC(=O)c3cc(OCCN(C)C)ccc3C)c3ccccc3n2)n1	Vero E6	–	–	31.25 µM	viability	47.5% and 71.5% and 55.5%
CCCC[C@H]1C(=O)N(C)[C@@H](CCCC)C(=O)N[C@@H](CCCNC(=O)CN2CCN(CC(=O)O)CCN(CC(=O)O)CCN(CC(=O)O)CC2)C(=O)N[C@H](C(=O)NCC(N)=O)CSCC(=O)N[C@@H](Cc2ccc(O)cc2)C(=O)N(C)[C@@H](C)C(=O)N[C@@H](CC(N)=O)C(=O)N2CCC[C@H]2C(=O)N[C@@H](Cc2c[nH]cn2)C(=O)N[C@@H](CC(C)C)C(=O)N(C)CC(=O)N[C@@H](Cc2c[nH]c3ccccc23)C(=O)N[C@@H](CO)C(=O)N[C@@H](Cc2c[nH]c3ccccc23)C(=O)N1C [gallium-68 labelled]	–	–	NOD/SCID mice with CHO-hPD-L1 xenograft, heart	30 min post injection	tissue uptake	2.45 ± 0.16 %ID/g
N#[11C]c1ccc(-c2csc(NN=C3CCCC3)n2)cc1	–	–	C57BL/6 mouse, male	intravenous, 3 MBq, 15 min	uptake in small intestine with contents	18.6 ± 2.51 %ID/g
CC(C)C[C@H](NC(=O)CNC(=O)[C@H](CCC(N)=O)NC(=O)[C@H](CC(C)C)NC(=O)[C@H](CC(C)C)NC(=O)[C@H](CCCNC(=N)N)NC(=O)[C@H](CCC(N)=O)NC(=O)[C@H](CC(C)C)NC(=O)[C@H](CCCNC(=N)N)NC(=O)[C@H](C)NC(=O)CNC(=O)[C@H](CCC(=O)O)NC(=O)[C@H](CCCNC(=N)N)NC(=O)[C@H](CC(C)C)NC(=O)[C@H](CCCNC(=N)N)NC(=O)[C@H](CO)NC(=O)[C@H](CC(C)C)NC(=O)[C@H](CCC(=O)O)NC(=O)[C@H](CO)NC(=O)[C@@H](NC(=O)[C@H](Cc1ccccc1)NC(=O)[C@@H](NC(=O)CNC(=O)[C@H](CC(=O)O)NC(=O)C(C)(C)NC(=O)[C@@H](N)Cc1c[nH]cn1)[C@@H](C)O)[C@@H](C)O)C(=O)N[C@@H](CC(C)C)C(=O)N[C@@H](CCC(N)=O)C(=O)NCC(=O)N[C@@H](CC(C)C)C(=O)N[C@H](C(=O)NCC(=O)N[C@@H](CCCCNC(=O)COCCOCCNC(=O)COCCOCCNC(=O)CC[C@H](NC(=O)CCCCCCCCCCCCCCCCC(=O)O)C(=O)O)C(N)=O)C(C)C	–	–	male C57BL/6J mice, diet-induced obese, plasma	subcutaneous, 300 nmol/kg twice daily, 2 h post-dose, day 8	plasma concentration	914 nM
CC1(C)C(=O)N(c2ccc(C#N)c(C(F)(F)F)c2)C(=S)N1c1ccc(C(N)=O)c(F)c1	–	–	human, male, plasma	oral, 160 mg, single dose, fasting	AUC(0-t)	258 ± 48.9 µg·h/mL
C/C(=N\OCCCN1CCCCC1)c1ccc(C(F)(F)F)cc1	–	–	mouse, plasma	oral, 50 mg/kg twice daily, day 7	Cmax	978 ± 478 ng/mL
CCCCCCCCCCCCCCCC(=O)N[C@@H](CCC(=O)NCCCC[C@H](NC(=O)[C@H](CC(=O)O)NC(=O)[C@H](CO)NC(=O)[C@@H](NC(=O)[C@H](Cc1ccccc1)NC(=O)[C@@H](NC(=O)CNC(=O)[C@H](CCC(N)=O)NC(=O)[C@H](C)NC(=O)[C@@H](Cc1ccc(O)cc1)NC(C)=O)[C@@H](C)O)[C@@H](C)O)C(=O)N[C@@H](CO)C(=O)N[C@@H](CCCCN)C(=O)N[C@@H](Cc1ccc(O)cc1)C(=O)N[C@@H](CC(C)C)C(=O)N[C@@H](CC(=O)O)C(=O)N[C@@H](CCC(=O)O)C(=O)N[C@@H](CCCNC(=N)N)C(=O)N[C@@H](C)C(=O)N[C@@H](C)C(=O)N[C@@H](CCC(N)=O)C(=O)N[C@@H](CC(=O)O)C(=O)N[C@@H](Cc1ccccc1)C(=O)N[C@H](C(=O)N[C@@H](CCC(N)=O)C(=O)N[C@@H](Cc1c[nH]c2ccccc12)C(=O)N[C@@H](CC(C)C)C(=O)N[C@@H](CC(C)C)C(=O)N[C@@H](CCC(=O)O)C(=O)NCC(=O)NCC(=O)N1CCC[C@H]1C(=O)N[C@@H](CO)C(=O)N[C@@H](CO)C(=O)NCC(=O)N[C@@H](C)C(=O)N1CCC[C@H]1C(=O)N1CCC[C@H]1C(=O)N1CCC[C@H]1C(=O)N[C@@H](CO)C(N)=O)C(C)C)C(=O)O	–	–	male cynomolgus monkey, plasma	subcutaneous, 0.0161 mg/kg	AUC(0-inf)	2.16 µg·h/mL
C[C@H](NC(=O)[C@H](CCCNC(=N)N)NC(=O)[C@H](CCCNC(=N)N)NC(=O)[C@H](CO)NC(=O)[C@H](CO)NC(=O)[C@H](CO)NC(=O)CNC(=O)[C@H](Cc1ccc(O)cc1)NC(=O)CNC(=O)CNC(=O)[C@H](Cc1ccccc1)NC(=O)[C@H](Cc1ccccc1)NC(=O)Cc1ccc2ccccc2c1)C(=O)N1CCC[C@H]1C(=O)N[C@@H](CCC(N)=O)C(=O)N[C@H](C(=O)O)[C@@H](C)O	–	IVIS imaging	mouse, non-injured, brain	intravenous, tail vein, 1 µmol/kg, Cy5.5-conjugated	time to peak brain accumulation	4 h
CN1Cc2cc(Cl)ccc2-n2c(nnc2C2CCN(c3cccc([18F])n3)CC2)C1	–	–	C57BL/6 mouse male, small intestine	intravenous, 3.7 MBq, 60 min	tissue uptake	6.54 ± 2.97 %ID/g
CC(C)=CCC/C(C)=C/CCn1cc(CC(C)(P(=O)(O)O)P(=O)(O)O)nn1	–	–	mouse CD-1, bile	intravenous, 0.3 mg/kg, 8 h	concentration	6040 ± 3070 ng/mL
CC(C)NCCCn1c(Sc2cc3c(cc2I)OCO3)nc2c(N)ncnc21	–	LC-MS/MS	mouse, MDA-MB-468 xenograft, tumour	75 mg/kg, 24 h	intratumoral concentration	5 µM
CSCC[C@H](NC(=O)[C@@H](NC(=O)[C@H](CC(C)C)NC(=O)[C@@H](NC(=O)[C@H](Cc1c[nH]cn1)NC(=O)CCCCCNC(=O)[C@H](CCCNC(=N)N)NC(=O)[C@H](CCCNC(=N)N)NC(=O)[C@H](CCCNC(=N)N)NC(=O)[C@H](CCC(N)=O)NC(=O)[C@H](CCCNC(=N)N)NC(=O)[C@H](CCCNC(=N)N)NC(=O)[C@H](CCCCN)NC(=O)[C@H](CCCCN)NC(=O)[C@H](CCCNC(=N)N)NC(=O)CNC(=O)[C@@H](N)Cc1ccc(O)cc1)C(C)C)C(C)C)C(=O)N[C@@H](CS)C(=O)N[C@@H](C)C(=O)N[C@H](C(N)=O)[C@@H](C)O	–	–	C57BL/6J mice	Alzet osmotic pump, 3 mg/kg, 8 weeks	serum Potassium	4.9 g/dL and 4.8 g/dL and 4.4 g/dL
O=C1NC2(CC2)COc2ncc(F)cc2[C@H]2COCCN2c2ccn3ncc1c3n2	–	–	Sprague-Dawley rats, male, blood	oral, 5 mg/kg/day, end of treatment, 4-week subacute toxicity	fibrinogen	2.09 ± 0.31 g/L
N=C(N)NCCC[C@@H](NC(=O)[C@H](N)Cc1c[nH]c2ccccc12)C(=O)N[C@H](CCCCN)C(=O)N[C@H](Cc1c[nH]c2ccccc12)C(=O)N[C@H](CCCNC(=N)N)C(=O)N[C@H](CCCCN)C(=O)N[C@H](Cc1c[nH]c2ccccc12)C(=O)N[C@H](CCCNC(=N)N)C(=O)N[C@H](CCCCN)C(=O)N[C@H](Cc1c[nH]c2ccccc12)C(=O)N[C@H](CCCNC(=N)N)C(=O)N[C@H](CCCCN)C(N)=O	–	–	mouse	intraperitoneal, 30 mg/kg single dose, day 4	survival	100%
CC[C@H](C)[C@H](NC(=O)CN)C(=O)N[C@@H](CCCNC(=N)N)C(=O)N[C@@H](CCCCN)C(=O)N[C@@H](Cc1c[nH]c2ccccc12)C(=O)N[C@@H](Cc1ccccc1)C(=O)N[C@@H](CCCCN)C(=O)N[C@@H](CCCCN)C(=O)N[C@@H](C)C(=O)N[C@@H](C)C(=O)N[C@@H](Cc1c[nH]cn1)C(=O)N[C@H](C(=O)NCC(=O)N[C@@H](CCCCN)C(=O)N[C@@H](CCC(=O)O)C(=O)N[C@H](C(=O)NCC(=O)N[C@@H](CCCCN)C(=O)N[C@H](C(=O)N[C@@H](C)C(=O)N[C@@H](CC(C)C)C(=O)N[C@@H](CC(N)=O)C(=O)N[C@@H](C)C(=O)N[C@@H](CS)C(=O)N[C@@H](CC(C)C)C(=O)O)C(C)C)C(C)C)C(C)C	–	–	zebrafish embryos 28 hpf, E3 medium	1 h	acute toxic concentration	25 µM
COc1cc2ncnc(Oc3ccc(Nc4nccc5[nH]cc(-c6ccc(F)cc6)c(=O)c45)cc3F)c2cc1OC	–	general toxicity	Sprague-Dawley rat	oral, multiple doses, once daily	NOAEL	10 mg/kg/day
CC(C)[C@@H]1NC(=O)CNC(=O)[C@H](CC(N)=O)NC(=O)[C@H](CCCNC(=N)N)NC(=O)[C@H](Cc2ccc(O)cc2)NC(=O)[C@H](C(C)C)NC(=O)[C@@H](NC(=O)[C@@H](NC(=O)[C@H](CC(N)=O)NC(=O)[C@H](Cc2c[nH]c3ccccc23)NC(=O)[C@H](C)NC(=O)[C@H](Cc2ccccc2)NC(=O)CNC(=O)[C@H](CCCCN)NC(=O)[C@H](Cc2ccccc2)NC(=O)[C@H](Cc2ccccc2)NC(=O)[C@H](CCCCN)NC(=O)OCC2c3ccccc3-c3ccccc32)C(C)C)CSSC[C@@H](C(=O)N[C@@H](Cc2c[nH]cn2)C(=O)N[C@@H](CCCNC(=N)N)C(=O)N[C@@H](CCCNC(=N)N)C(=O)N[C@@H](C)C(=O)N[C@@H](CC(N)=O)C(N)=O)NC(=O)[C@H](C(C)C)NC(=O)[C@H](CCCNC(=N)N)NC1=O	–	–	ICR mouse, serum	ip, 5 mg/kg, 3 d dosing, blood day 5	total protein	53.5 ± 1.19 g/L
CC(C)(C)C(=O)OCOP(=O)(OCOC(=O)C(C)(C)C)C1CCCN(O)C1=O (centres unmarked)	COLO 205	–	–	–	GI50	600 nM
CCn1ccc(-c2cc([C@@H](C)NC(=O)c3cc(OC[C@@H]4CCN4C)ccc3C)c3ccccc3n2)n1	Vero E6	–	–	500 µM	viability	0.896% and 0.448% and 1.34%

Some of these lines once more:
SMILES	tested on	test	test system	setting	quantity	result
CCn1ccc(-c2cc([C@@H](C)NC(=O)c3cc(OC[C@@H]4CCN4C)ccc3C)c3ccccc3n2)n1	Vero E6	–	–	500 µM	viability	0.896% and 0.448% and 1.34%
CC(C)NCCCn1c(Sc2cc3c(cc2I)OCO3)nc2c(N)ncnc21	–	LC-MS/MS	mouse, MDA-MB-468 xenograft, tumour	75 mg/kg, 24 h	intratumoral concentration	5 µM
